{"data": "Measurements of several laboratories", "note": "A part holds a random share of what one study measured."}
{"data": "Series 1", "target": "Centromere-binding protein 1, full length, N-terminal tag (CBF1, Saccharomyces cerevisiae, UniProt P17106, residues 1-351)", "technique": "protein-binding microarray", "molecule type": "double-stranded DNA, one strand shown", "medium": "in vitro", "concentration": "0.8 µM", "notes": "whole 60-bp probe, no competitor", "reading": "higher = stronger binding", "constant ends, left off below": "… GTCTTGATTCGCTTGACGCTGCTG", "sequence of UniProt P17106 (whole entry, looked up)": "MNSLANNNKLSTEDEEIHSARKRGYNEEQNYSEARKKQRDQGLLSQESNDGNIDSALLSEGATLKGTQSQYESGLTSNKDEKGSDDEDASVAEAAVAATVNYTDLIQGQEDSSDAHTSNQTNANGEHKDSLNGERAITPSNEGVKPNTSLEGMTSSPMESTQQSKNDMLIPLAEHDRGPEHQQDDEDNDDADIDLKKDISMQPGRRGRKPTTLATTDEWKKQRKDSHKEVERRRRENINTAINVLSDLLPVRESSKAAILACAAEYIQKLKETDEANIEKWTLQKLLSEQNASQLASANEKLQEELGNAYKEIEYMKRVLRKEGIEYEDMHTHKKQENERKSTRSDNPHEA"}
{"Strand": "GAATCATACCAACGTCACGTGTAAAGCTTTTGCTAG", "fluorescence intensity [a.u.]": 9310}
{"Strand": "CTATAAGGTAAGTTCGAGGTGACATATTTCACATTC", "fluorescence intensity [a.u.]": 525}
{"Strand": "CTAGAACAGTTCGATTCTGATGTAGGCAATGGATTC", "fluorescence intensity [a.u.]": 504}
{"Strand": "CTACTCGATGTGAGCCACGCGTCGGTTTTTCTTTTC", "fluorescence intensity [a.u.]": 546}
{"Strand": "GAAATAATTTTCCATGGCGTGCTTTTACCAAAGTAG", "fluorescence intensity [a.u.]": 599}
{"Strand": "CTATACATTGAAAAGCACGTGACGTGACACCAATTC", "fluorescence intensity [a.u.]": 17500}
{"Strand": "CTAGTACAAAATGATCACGCAACTTTTGACAATTTC", "fluorescence intensity [a.u.]": 862}
{"Strand": "CTATTTTTTGATGTCTTCGTGATATTTTGCAGATTC", "fluorescence intensity [a.u.]": 575}
{"Strand": "GAACAACAAACTTCCCACGTTACTCCTCGAGATTAG", "fluorescence intensity [a.u.]": 587}
{"Strand": "GAAGTACTAGATAGTCACGTGAATGTATACACGTAG", "fluorescence intensity [a.u.]": 17300}
{"Strand": "TGTACGAAGCTATTGTGCGTGCATATAGTAGTTAGG", "fluorescence intensity [a.u.]": 527}
{"Strand": "CTACTCAATTTGGTGAGCGTGCGGCTGATGGTCTTC", "fluorescence intensity [a.u.]": 549}
{"Strand": "CTACTTCTATATTGTCACCTTCCATTTATGAAGTTC", "fluorescence intensity [a.u.]": 632}
{"Strand": "CTACAACCCAACTTTACCACCAGGGCACACTTCTTC", "fluorescence intensity [a.u.]": 548}
{"Strand": "TGTACGAAGCTATGTGTCACCATTATAGTAGTTAGG", "fluorescence intensity [a.u.]": 516}
{"Strand": "CTAACTTCATTTCATCACGCTCATATTGTTTGTTTC", "fluorescence intensity [a.u.]": 649}
{"data": "Series 2", "target": "Histone acetyltransferase KAT6A, winged helix 1, GST fusion (KAT6A, Homo sapiens, UniProt Q92794, residues 1-85)", "technique": "protein binding microarray", "molecule type": "double-stranded DNA, one strand shown", "medium": "in vitro", "concentration": "not given", "notes": "8-mer, flanks averaged, mean of 2 arrays, mostly near background", "reference": "not given", "reading": "higher = stronger binding", "Residues (chain)": "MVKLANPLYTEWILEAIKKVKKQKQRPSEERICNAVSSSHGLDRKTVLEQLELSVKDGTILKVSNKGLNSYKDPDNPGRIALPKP"}
{"Strand": "CCATCTCA", "E-score": -0.183}
{"Strand": "CCAATTTA", "E-score": -0.194}
{"Strand": "CACGTAGG", "E-score": -0.203}
{"Strand": "GGCTGTTA", "E-score": 0.0983}
{"Strand": "CTTATGAA", "E-score": -0.0245}
{"Strand": "CTTAGTTA", "E-score": 0.0255}
{"Strand": "AAAAATTG", "E-score": -0.19}
{"Strand": "AAAGATGC", "E-score": 0.00215}
{"Strand": "ACGCCTTG", "E-score": 0.0847}
{"Strand": "GTACTGAC", "E-score": 0.12}
{"Strand": "GTATTGAA", "E-score": -0.106}
{"Strand": "AAAACGCA", "E-score": 0.0402}
{"Strand": "CGTGCGGA", "E-score": 0.272}
{"Strand": "GTGAGCCA", "E-score": -0.171}
{"Strand": "ACTCGCAT", "E-score": -0.000525}
{"Strand": "ACGGCCTG", "E-score": 0.304}
{"Strand": "AGTCACAC", "E-score": -0.233}
{"data": "Series 3", "target": "Prothrombin, mature alpha-thrombin (F2, Homo sapiens, UniProt P00734)", "technique": "aptamer microarray, sandwich", "molecule type": "DNA with 2'F-ANA", "medium": "in vitro", "concentration": "200 nM", "notes": "whole 15-mer aptamer, many near background", "added": "Cy3 exosite-II aptamer, 400 nM", "reading": "higher = stronger binding", "strand": "GGTTGGTGTGGTTGG"}
{"Modification": "2'F-ANA at 2 5 8 12 13 15", "mean fluorescence intensity [a.u.]": 124}
{"Modification": "2'F-ANA at 1 2 4 5 10 15", "mean fluorescence intensity [a.u.]": 48.9}
{"Modification": "2'F-ANA at 1 6 9 11", "mean fluorescence intensity [a.u.]": 123}
{"Modification": "2'F-ANA at 3 4 5 6 7 8 9 10 12 15", "mean fluorescence intensity [a.u.]": 57.9}
{"Modification": "2'F-ANA at 2 4 5 6 7 8 9 10 11 13 14", "mean fluorescence intensity [a.u.]": 63.5}
{"Modification": "2'F-ANA at 2 3 4 8 10 12 13 15", "mean fluorescence intensity [a.u.]": 269}
{"Modification": "2'F-ANA at 1 2 3 5 8 9 11 12 14 15", "mean fluorescence intensity [a.u.]": 51}
{"Modification": "2'F-ANA at 2 3 4 5 6 10 11 12 13 14 15", "mean fluorescence intensity [a.u.]": 52.8}
{"Modification": "2'F-ANA at 2 3 5 6 7 8 9 10 11 12 13", "mean fluorescence intensity [a.u.]": 56.6}
{"Modification": "2'F-ANA at 2 7 11 13 14", "mean fluorescence intensity [a.u.]": 171}
{"Modification": "2'F-ANA at 3 10 11 12 14", "mean fluorescence intensity [a.u.]": 401}
{"Modification": "2'F-ANA at 2 3 6 13 15", "mean fluorescence intensity [a.u.]": 559}
{"Modification": "2'F-ANA at 2 3 5 6 7 8 11 12 13 15", "mean fluorescence intensity [a.u.]": 143}
{"Modification": "2'F-ANA at 2 7 12", "mean fluorescence intensity [a.u.]": 824}
{"Modification": "2'F-ANA at 3 6 7 9 10 14", "mean fluorescence intensity [a.u.]": 390}
{"Modification": "2'F-ANA at 1 3 4 7 8 9 10 11 12 13", "mean fluorescence intensity [a.u.]": 77.5}
{"Modification": "2'F-ANA at 1 2 3 4 6 8 10 14", "mean fluorescence intensity [a.u.]": 52.4}
{"Modification": "2'F-ANA at 3 4 6 7 8 9 10 12 13 14", "mean fluorescence intensity [a.u.]": 220}
{"Modification": "2'F-ANA at 2 4 5 14 15", "mean fluorescence intensity [a.u.]": 42.9}
{"Modification": "2'F-ANA at 2 3 4 6 7 8 9 10 11 14", "mean fluorescence intensity [a.u.]": 154}
{"Modification": "2'F-ANA at 2 4 5 6 7 12 13 14", "mean fluorescence intensity [a.u.]": 48.7}
{"Modification": "2'F-ANA at 1 2 6 7 8 13 15", "mean fluorescence intensity [a.u.]": 129}
{"Modification": "2'F-ANA at 5 8 11 14 15", "mean fluorescence intensity [a.u.]": 49.8}
{"Modification": "2'F-ANA at 1 2 3 11 13 14 15", "mean fluorescence intensity [a.u.]": 65}
{"Modification": "2'F-ANA at 2 5 6 8 9 10 12 15", "mean fluorescence intensity [a.u.]": 51.5}
{"data": "Series 4", "target": "RING finger protein unkempt homolog, zinc fingers 1-6, GST-SBP tag (UNK, Homo sapiens, UniProt Q9C0B0, residues 30-357)", "technique": "RNA Bind-n-Seq", "molecule type": "RNA", "medium": "in vitro", "concentration": "not given", "notes": "RNA with constant flanks, human-mouse chimeric sites, ends assumed", "reference": "input RNA pool", "reading": "higher = stronger binding", "constant ends, left off below": "GGGAGUUCUACAGUCCGACGAUC … CAACAGAGGAUUGAGCAUCA", "Residues (chain)": "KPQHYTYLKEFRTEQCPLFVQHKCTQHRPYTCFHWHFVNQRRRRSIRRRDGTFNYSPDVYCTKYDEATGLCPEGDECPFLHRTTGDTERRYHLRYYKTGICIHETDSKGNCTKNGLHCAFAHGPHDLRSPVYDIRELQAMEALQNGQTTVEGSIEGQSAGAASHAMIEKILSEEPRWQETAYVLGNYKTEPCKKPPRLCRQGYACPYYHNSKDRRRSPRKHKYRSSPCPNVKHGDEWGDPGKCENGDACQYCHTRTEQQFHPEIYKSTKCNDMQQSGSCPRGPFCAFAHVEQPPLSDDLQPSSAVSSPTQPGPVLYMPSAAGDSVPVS"}
{"Strand": "CUUUUUGAAUCAUUCAAGAGUUUUGAAGGUCUCUUUUAUUUUCUGGGGUCCAUUGUUAACUUUAGUCAGGACCCAGAUGUGCACUUUAAAUAUAUUCAGGCAGCUUGCAAGACUGGGCAA", "bound/input enrichment [ratio]": 0.683}
{"Strand": "GGACAUCUGUCAAAUUGUUAUGUUCCUGUGAAACAAGUGAGCACUUUUCAUAUACUAAUCUGCUUGUACAUCUGUAUGAUAGAGAAAUGUAAAUAUGUUAAUCCAAGCAAUGUGUCACUU", "bound/input enrichment [ratio]": 0.173}
{"Strand": "GAUCCACAGUGGUCUGAGGAGCAACUCAUUGCUGCAAAAUUCUGUUUUGCUGGCCUUGUUAUAGGGCAGACUGAAGUGGACAUCAUGAGUCAUGCCACACAGGCUAUAUUUGAAAUACUG", "bound/input enrichment [ratio]": 0.15}
{"Strand": "CUGGCACUCUAUCAGAUAUAUUAAUUUUUUAAUGUAGAUGUAAUUUUAAAAAUGAAUGGCUAGUUUACACGUUUAACUAGGGUUUUACUAUAUAUGUGUGUGUAUAUAUAUAUAUAUAUA", "bound/input enrichment [ratio]": 5.87}
{"Strand": "UAAAUUAGGGCUGCCGUUUUCUGUUUCUCCCUGGGCUGCGGAAAGCCAGAAGAUUUUAUCUAGCUUAUACAAGGCUGCUGGUGUUCCCUCCCUCCCGCCACGAGGGUUUUUUUUCCAGCA", "bound/input enrichment [ratio]": 0.849}
{"Strand": "GUGCCCUCCUUCUCGCUGCGGAGCCCGAGCUGGGAACCAUUCCGGGACUGGUACCCUGCACACAGCCGCCUCUUCGAUCAAGCUUUCGGGGUGCCCCGGCUGCCGGAUGAGUGGUCGCAG", "bound/input enrichment [ratio]": 0.0764}
{"Strand": "AACAGAUUGUCUUUAAGCAUUCCAAGCGAGAAUGCUGGGGUGAUCAUUGUUGCCCAUAUAUAGUAAUACUGAGCUUUAAUGCUGUUCCAUGUUACAUCUUUCCUUCACUCCAGAAUUGUU", "bound/input enrichment [ratio]": 0.644}
{"Strand": "CUGGCACUCUAUCAGAUAUAUUAAUUUUUUAAUGUAGAUGUAAUUUUAAAAAUGAAUGGCUAGUUUACACGUUUAACUAGGGUUUUACUAUAUAUGUGUACAUAUGUAUAUAUAUAUAUA", "bound/input enrichment [ratio]": 3.69}
{"Strand": "AAAGUGAUGACUAUGUUUGUCCAACGACAGGUAUUUUCGGAGAGCAAAGAUGAGAUUGCUUUAGUCCUCUAUGGCACAGAUGGCACUGAUAAUGCCCUUUCUGGUGGGGACCAGUAUCAG", "bound/input enrichment [ratio]": 0.376}
{"Strand": "GAAACAUUUAAAUUUAAAGAAGCUGUUGUUCUAGGAAGUACGGACUUCCUAGAAGAUGAUAUAGAGAAAAUUGUAGAAGAACUGGGGAAAGAGUAUAAAGGCAAUGCCUACCAUCUGAUG", "bound/input enrichment [ratio]": 1.3}
{"Strand": "CCUGCUCAGAUCACCAUGAAAGUAAUCCAAGGCUUGUAUAGUGGGGUCACCACAGUGGAACUGGACACCCUGGCUGCUGAGACAGCCGCAACCUUGACCACGAAGCACCCUGACUAUGCC", "bound/input enrichment [ratio]": 0.157}
{"note": "Some of these lines once more (series 4):"}
{"Strand": "CUGGCACUCUAUCAGAUAUAUUAAUUUUUUAAUGUAGAUGUAAUUUUAAAAAUGAAUGGCUAGUUUACACGUUUAACUAGGGUUUUACUAUAUAUGUGUACAUAUGUAUAUAUAUAUAUA", "bound/input enrichment [ratio]": 3.69}
{"Strand": "UAAAUUAGGGCUGCCGUUUUCUGUUUCUCCCUGGGCUGCGGAAAGCCAGAAGAUUUUAUCUAGCUUAUACAAGGCUGCUGGUGUUCCCUCCCUCCCGCCACGAGGGUUUUUUUUCCAGCA", "bound/input enrichment [ratio]": 0.849}
{"Strand": "GAUCCACAGUGGUCUGAGGAGCAACUCAUUGCUGCAAAAUUCUGUUUUGCUGGCCUUGUUAUAGGGCAGACUGAAGUGGACAUCAUGAGUCAUGCCACACAGGCUAUAUUUGAAAUACUG", "bound/input enrichment [ratio]": 0.15}
{"Strand": "GGACAUCUGUCAAAUUGUUAUGUUCCUGUGAAACAAGUGAGCACUUUUCAUAUACUAAUCUGCUUGUACAUCUGUAUGAUAGAGAAAUGUAAAUAUGUUAAUCCAAGCAAUGUGUCACUU", "bound/input enrichment [ratio]": 0.173}
{"Strand": "CUUUUUGAAUCAUUCAAGAGUUUUGAAGGUCUCUUUUAUUUUCUGGGGUCCAUUGUUAACUUUAGUCAGGACCCAGAUGUGCACUUUAAAUAUAUUCAGGCAGCUUGCAAGACUGGGCAA", "bound/input enrichment [ratio]": 0.683}
